Experimental data collected from several papers.
Parts stem from different laboratories: compare values within a part only.

Study 1 — technique: protein binding microarray; molecule type: double-stranded DNA, one strand shown; matrix: in vitro; concentration: not given; reference: not given; direction: higher = stronger binding; endpoint: E-score
Target: Histone acetyltransferase KAT6A, both winged helices, GST fusion (KAT6A, Homo sapiens, UniProt Q92794, residues 1-181)
Setting: 8-mer, flanks averaged, mean of 2 arrays, mostly near background
Target sequence (chain): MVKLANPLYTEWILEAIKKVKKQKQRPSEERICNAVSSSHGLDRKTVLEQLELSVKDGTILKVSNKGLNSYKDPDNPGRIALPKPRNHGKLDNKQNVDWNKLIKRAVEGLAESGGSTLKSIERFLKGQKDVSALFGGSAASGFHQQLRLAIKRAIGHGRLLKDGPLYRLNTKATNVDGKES
GAGTTATA: -0.164
CCAATTGG: -0.133
CTCCAACA: -0.24
CTGGGCCA: -0.211
GATGGGGA: -0.155
AGGGTGAG: -0.15
CTCACTTC: -0.0217
ACAAAACG: 0.0556
CTAACGAG: -0.202
CGGCCAAA: 0.131
AGATATGC: -0.00239
TACTCCAA: -0.156
GTGTGGTA: -0.131
CCTCGCGC: 0.265
AAGTCAAA: -0.113
ACAGAATC: -0.104
CTTCTGGC: -0.131
CACATTGA: 0.0451
AAACACTA: 0.0302
TGTAATAA: -0.0266
AACCATGA: -0.0112
ACGAGGGA: -0.129
GCGTGTCC: 0.245
CTAATTAG: -0.135

Study 2 — technique: RNA Bind-n-Seq; molecule type: RNA; matrix: in vitro; concentration: 365 nM; reference: no-protein control; direction: higher = stronger binding; endpoint: RBNS enrichment (R)
Target: RNA binding protein fox-1 homolog 2, RRM domain, GST-SBP tag (RBFOX2, Homo sapiens, UniProt O43251-10, residues 100-194)
Setting: natural RNA segment, single round, ends assumed
Target sequence (chain): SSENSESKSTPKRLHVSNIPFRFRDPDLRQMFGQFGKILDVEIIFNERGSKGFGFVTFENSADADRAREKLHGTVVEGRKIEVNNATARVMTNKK
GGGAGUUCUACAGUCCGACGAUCGCUUUUUAUUCUAUGAAAACAAUCCUUUUGGGGAAUGUACCUGAAGAGUACAGAGGAGCAAGUUCCCAGAGCAGCAGCCACGGCAUCGUGGCCUGCAGGUGCACCCUCCUUGGAAUUCUCGGGUGCCAA: 0.393
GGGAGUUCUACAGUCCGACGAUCUGAGCUGCCUUAAGGGGAAGAGUGCCAAUGGUCUUCGUGGACUUCAGAAGUGACUUUGAGACUGUUCCUGCUGACCUUUUGAGAUAGUCACUUAAGGAAGGAUGGCUCUCUGGAAUUCUCGGGUGCCAA: 0.391
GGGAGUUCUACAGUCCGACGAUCGAUGCCCUCCUGAAACCAUGAGAAGCUUCAGCCUUGCCUCACUGGCUUCCCCAUCUGACCCCACCAGGUACCACACUGUCACCCAGUGUCCUUGAUCUCCUCUUGUUCCCUGGAAUUCUCGGGUGCCAA: 0.597
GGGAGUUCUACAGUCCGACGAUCUUAUUCGUGAAAGGAAGAGCAGUUGUUAUUUAUUGUGAGGUCUCUUGCUUGUAAAGUAAAAGCUUUUUUUCCUUGUAAACCAUUUAAGUCCAUUCCUUACUAUUCACUCAUGGAAUUCUCGGGUGCCAA: 0.355
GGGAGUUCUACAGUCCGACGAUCUUCUGUUUCUGUUUAUAAUGAAGAACACUGUAGCUACAUUUUCAGAAGUUAACAUCAAGCCAUCAAACCUGGGUAUAGUGCAGAAAACGUGGCACACACUGACCACACAUUGGAAUUCUCGGGUGCCAA: 0.58
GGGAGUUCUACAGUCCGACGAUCGCCCCAUCCCUCCUAGGAAGAGAGAACUUUGCUGACGAUCUCACUACUUUUGAAGAAAAGAAGCCCUAUCUGGAGACUUGACUCCAGAGCGAAGCCCUAUCUGGAGACUUUGGAAUUCUCGGGUGCCAA: 0.372
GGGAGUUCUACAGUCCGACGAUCGAUGGAGACUGGUGGGGACGCCCCCGCCUCCCUGUCCCCCGUUUCACACACUGGACACCAUCACCUCUUUGGAACUGCCAGACCCUGGGGGUCCCCAGUGAGCAAAGGUCUGGAAUUCUCGGGUGCCAA: 0.31
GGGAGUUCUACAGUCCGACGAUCUGCCAGCCACCUGUUCUCGCCACCGGCCACCACGUGCCGGGCCGCCAUCGGAGGUGCCUGAAGAGCUUGUGUCAGGGAGCGGUUUGGCCAGUCAGAGACAAGUCCCAAGAUGGAAUUCUCGGGUGCCAA: 0.43
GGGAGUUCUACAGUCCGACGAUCCCACCUCAGGGAAAAGGUAGAGGGGGCAGGUUAGAACUUGUGGUACAGUGAUAUUGGUCCAGUUCCUCCUGACUCUUCACUCUACCACCCAAAAGUCAAUGUAGACCUACUGGAAUUCUCGGGUGCCAA: 0.36
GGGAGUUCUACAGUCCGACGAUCAUAGCUAAAGAAAUUUUUGUGGUUUCUCUGCUUAUGGUUUUGAGUUACUCUUUGUUCAGUAAUGCACUUUAUUUUAUUGUCCAAAGAGAGUCAAGCUAAAGCUACCACCUUGGAAUUCUCGGGUGCCAA: 0.551
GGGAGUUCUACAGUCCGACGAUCCAUUCUUAAAAUAUUAGAUACCAGGUAGUAUAUAUUGUUUCUGUACAAAAAUGACUGUAUUCUCUCACCAGUAGGACUUAAACUUUGUUUCUCCAGUGGCUUAGCUCCUGUGGAAUUCUCGGGUGCCAA: 0.496
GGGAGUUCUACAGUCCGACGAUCAGAGACUCAGUUUACCUUAGUGCCUUAGAGGAUGCUAGGUCCUCUGACUGACAUUCCUCAGUGGUCCUCACAGGUGGUUAUAGGGGGGCUGCCUCUCACCUCCGAGCACUUGGAAUUCUCGGGUGCCAA: 0.244

Study 3 — technique: RNA Bind-n-Seq; molecule type: RNA; matrix: in vitro; concentration: not given; reference: input RNA pool; direction: higher = stronger binding; endpoint: bound/input enrichment
Target: RING finger protein unkempt homolog, zinc fingers 1-6, GST-SBP tag (UNK, Homo sapiens, UniProt Q9C0B0, residues 30-357)
UniProt Q9C0B0, sequence (30-357, looked up): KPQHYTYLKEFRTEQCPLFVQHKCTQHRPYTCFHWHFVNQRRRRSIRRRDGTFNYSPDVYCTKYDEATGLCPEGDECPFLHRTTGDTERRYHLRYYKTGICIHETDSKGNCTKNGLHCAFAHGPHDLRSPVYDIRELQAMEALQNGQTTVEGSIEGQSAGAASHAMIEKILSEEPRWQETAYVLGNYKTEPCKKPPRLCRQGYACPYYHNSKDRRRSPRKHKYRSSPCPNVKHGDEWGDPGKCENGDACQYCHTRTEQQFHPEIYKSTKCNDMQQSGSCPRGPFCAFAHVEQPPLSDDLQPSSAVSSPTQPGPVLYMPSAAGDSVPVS
Setting: RNA with constant flanks, human-mouse chimeric sites, ends assumed
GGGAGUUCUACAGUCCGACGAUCUCAGAAGCUGUGCUGGGUCACUUUUCAUAUCCAGAUCCUUCACAGUGGACAGAUGAAGAACUGGGAAUCCCUCCUGAUGACGAGGACUGACACUGUAGACUCAGCCUACGAGUAGGAGCACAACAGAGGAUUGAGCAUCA: 0.31 ratio
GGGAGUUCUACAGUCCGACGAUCAUAGAUGAAAUUGAUGUGGACCAGGAAGGAAUUGCUGAAAUGAUCCUGGAUGAAAAUGCUAUAGCUCAGGUCCCACGCCCUGGAACGUCUUUGAAGCUCCCUGGCACUAACCAAACAGGACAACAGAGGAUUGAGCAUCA: 0.465 ratio
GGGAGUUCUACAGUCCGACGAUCCAACCUCAGAGCCCAGACUUCCUGGAUAUUACCAACCCUAAAGCGGUAUUAGAAAAUGCAUUGAGAAACUUCGCCUGUCUGACCACCGGAGAUGUGAUUGCUAUCAACUACAAUGAGAAGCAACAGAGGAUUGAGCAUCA: 0.4 ratio
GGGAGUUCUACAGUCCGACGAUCUUCAAAGAAAAGGGCAGCUGUGUCAUUACUUGGGAGACUCUGGGGGAGGGAAAUUCUGUUCUUUUGUUUAAUUUUCCCCCAAAUGAAGCCAAAGUGUUUUUUAAGGAACUGAGAAAAAAUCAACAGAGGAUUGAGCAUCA: 0.19 ratio
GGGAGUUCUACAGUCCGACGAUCGGGUGGGUGGUCAUUGCCGUUUGAGCUGCUGAUUUUCAUGAGUCGCCUUCAAAACUCUCGCAUAGGGUUGACAAUGUGGGGGGGUGGGGGAUCCAGCUUAUUCUUUUAUUUUCAAGUCCACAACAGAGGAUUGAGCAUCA: 0.496 ratio
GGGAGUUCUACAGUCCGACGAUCAUAUUUCAUAUUGCAAAGAUGUUUACAAGUAUUUUAAUUUAAGUUCAGUGAACUUUUUUGUAGCUGGGUUAAAUCUUUUUAUUUUAGUAUGGCCUUAAUGGCAAAGACACUGUAUUAUUUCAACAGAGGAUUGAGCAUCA: 4.07 ratio
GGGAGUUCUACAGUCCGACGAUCCUGAGGAUACCACUGAAGAGACCUUAAAAGAAUCAUUUGAGGGCUCUGUUCGUGCAAGAAUAGUCACCUGACCGGGAACUGGUUCUUCCAAAGGGUUUGGUUUUGUAAGACUUCAACGUGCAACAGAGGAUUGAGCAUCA: 0.29 ratio
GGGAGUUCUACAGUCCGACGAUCAUGGAAAAGGAUUCUCUGCCCCGCUUUGUGCGCUCUGAAUUUUAUAAGGAGCUAAUCAAGUAGUCAUCUGGUCAGGCUUCCAAAAGUUGCCCUGUGAUAUUUCCUCCAUCCUUUGUAGCACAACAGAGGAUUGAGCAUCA: 0.172 ratio
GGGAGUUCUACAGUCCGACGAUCAAAGAGUGGAUAGAGUGUGCACACGGGAUCGGUUAUACCCGGGCGAAAAAGGAGUGCAAGAUAGAGUUCGAUGACUUCGAAGAGUGCUUGCUUCGGUACAAAACGAUGAGACGUGCACAUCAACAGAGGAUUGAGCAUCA: 0.294 ratio
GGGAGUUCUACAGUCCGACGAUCAAAGAACUUGCUGAUGAUGAAGAUGAGGAAGACAAUGAUGAUGUUGAACCUAUUACUGAAUUUCGAUUUGUGCCCAGUGAUAAGUCAGCAUUGGAGGCGAUGUUCACAGCAAUGUGUGAGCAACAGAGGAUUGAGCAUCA: 0.299 ratio
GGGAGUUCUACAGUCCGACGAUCCCCCAAUACCAUUUGCAAGAGUUGGAAUGCACUCUCUUUUUUAAAAAACAUGUAUACAUUUUAGGGCUGUAGAUUUAUUUUCCUGGUUUUGUUUUUCUUGCUUAUUCUUUGAGCACAGAACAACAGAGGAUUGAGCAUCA: 2.13 ratio

Study 4 — technique: RNA Bind-n-Seq; molecule type: RNA; matrix: in vitro; concentration: 200 nM; setting: whole 134-nt RNA, ends assumed; with: 150 mM LiCl; reference: input library; direction: higher = stronger binding; endpoint: log2 enrichment; each molecule: 7-deaza-guanosine replaces G
Target: Fragile X messenger ribonucleoprotein 1, C-terminal low-complexity region (Fmr1, Mus musculus, UniProt P35922)
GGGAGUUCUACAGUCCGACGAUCGUCCUGUGCUACACAUCGUAUGUACCGAAUCGGGGUGGGGUUUGGGGUUUUUUUGGGGAAAGUAUUAUGUUACGCCGUUCGGAUCUGCACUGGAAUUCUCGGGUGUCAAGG: -0.767
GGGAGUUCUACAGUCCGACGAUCGCCCUGUAAUCGUGGAGAUCCCGCACUUUGCCUCCCAUGGCCGUGGAGACCGCGAGCUCGUGGUUCUGAGGAGCGAAAACGGCUCCGUGUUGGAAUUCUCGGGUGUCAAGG: -1.94
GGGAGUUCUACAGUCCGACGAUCUAACUUUAGAGGAGGAUCUGAUGGAUAUGGCAGUGGACGUGGAUUUGGGGAUGGCUAUAAUGGGUAUGGAGGAGGACCUGGAGGUGGCAGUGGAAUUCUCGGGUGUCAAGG: 0.478
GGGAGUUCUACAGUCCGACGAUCUGUGCUACACAUCGUAUGUACCGAAUCGGGAAAAAAAGGGGAAAAAAAGGGAAAAAAAGGGGAAAGUAUUAUGUUACGCCGUUCGGAUCUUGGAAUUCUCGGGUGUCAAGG: 0.605
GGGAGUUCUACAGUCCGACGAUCUCCUGUGCUACACAUCGUAUGUACCGAAUCGGGGAAAGGGGAAAAAAAGGGGUUUGGGGAAAGUAUUAUGUUACGCCGUUCGGAUCUGCAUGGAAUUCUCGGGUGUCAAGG: -0.414
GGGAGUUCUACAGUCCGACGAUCUUGCGCCUGUCCCGGGUGAAGUGUGUCGGCCUCUCCGCACGCACCACGGAGACCAGCAGUGCAGUCAUGUGCCUGGACCUUGCAGCUUCCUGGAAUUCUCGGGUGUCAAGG: 0.338
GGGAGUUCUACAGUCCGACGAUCAAGUCCUGUGCUACACAUCGUAUGUACCGAAUCGGAAAAGGGAAAAGGAAAAGGGGAAAGUAUUAUGUUACGCCGUUCGGAUCUGCACUUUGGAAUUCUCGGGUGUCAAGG: -0.354
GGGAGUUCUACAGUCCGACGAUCUCCUGUGCUACACAUCGUAUGUACCGAAUCAAACCCCCCCAAACCCCCAAACCCCCAAAAAAGUAUUAUGUUACGCCGUUCGGAUCUGCAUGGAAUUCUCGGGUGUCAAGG: 0.709
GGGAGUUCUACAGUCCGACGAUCUUCAGUUAUUCAAGCGGAGAAAUGUUGCUACAGCAGAAGAAGAAACAGAAGAAGAAGUUAUGUCAGAUGGAGGCUUUCAUGAGGCUCAGAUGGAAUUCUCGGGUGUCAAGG: -2.63
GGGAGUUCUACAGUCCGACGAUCGAGGAGACUCUGCGCAGAGCACUUUGGGUCCGGAGGGCGAGACUCCGGCGGAAGCAUUCCCGGGCGGGUGACCCAGCACGGUCCCUCUUGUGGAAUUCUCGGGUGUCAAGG: -1.79
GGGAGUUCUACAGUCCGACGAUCAGUCCUGUGCUACACAUCGUAUGUACCGAAUCGGGGUGGGGUGGGGAAAAAAAGGGGAAAGUAUUAUGUUACGCCGUUCGGAUCUGCACUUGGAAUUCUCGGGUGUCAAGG: -0.428
